Published values from different studies.
A part holds a random share of what one study measured. Several values in a cell are separate wells, animals, samples, runs or records. Positions count from the first letter of the parent shown.
Sequence of UniProt P49137 (whole entry, looked up): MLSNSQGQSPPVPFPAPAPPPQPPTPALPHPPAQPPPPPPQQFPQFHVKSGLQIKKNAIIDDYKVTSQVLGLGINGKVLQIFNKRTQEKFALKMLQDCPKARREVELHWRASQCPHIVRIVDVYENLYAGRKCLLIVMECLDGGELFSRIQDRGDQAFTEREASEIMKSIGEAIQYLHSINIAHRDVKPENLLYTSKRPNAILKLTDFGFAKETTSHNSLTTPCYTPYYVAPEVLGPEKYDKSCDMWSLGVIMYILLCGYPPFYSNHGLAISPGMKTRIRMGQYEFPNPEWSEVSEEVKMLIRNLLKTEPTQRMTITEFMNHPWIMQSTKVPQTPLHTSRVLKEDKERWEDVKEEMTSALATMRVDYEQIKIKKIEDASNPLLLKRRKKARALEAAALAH
Sequence of UniProt P00519 (whole entry, looked up): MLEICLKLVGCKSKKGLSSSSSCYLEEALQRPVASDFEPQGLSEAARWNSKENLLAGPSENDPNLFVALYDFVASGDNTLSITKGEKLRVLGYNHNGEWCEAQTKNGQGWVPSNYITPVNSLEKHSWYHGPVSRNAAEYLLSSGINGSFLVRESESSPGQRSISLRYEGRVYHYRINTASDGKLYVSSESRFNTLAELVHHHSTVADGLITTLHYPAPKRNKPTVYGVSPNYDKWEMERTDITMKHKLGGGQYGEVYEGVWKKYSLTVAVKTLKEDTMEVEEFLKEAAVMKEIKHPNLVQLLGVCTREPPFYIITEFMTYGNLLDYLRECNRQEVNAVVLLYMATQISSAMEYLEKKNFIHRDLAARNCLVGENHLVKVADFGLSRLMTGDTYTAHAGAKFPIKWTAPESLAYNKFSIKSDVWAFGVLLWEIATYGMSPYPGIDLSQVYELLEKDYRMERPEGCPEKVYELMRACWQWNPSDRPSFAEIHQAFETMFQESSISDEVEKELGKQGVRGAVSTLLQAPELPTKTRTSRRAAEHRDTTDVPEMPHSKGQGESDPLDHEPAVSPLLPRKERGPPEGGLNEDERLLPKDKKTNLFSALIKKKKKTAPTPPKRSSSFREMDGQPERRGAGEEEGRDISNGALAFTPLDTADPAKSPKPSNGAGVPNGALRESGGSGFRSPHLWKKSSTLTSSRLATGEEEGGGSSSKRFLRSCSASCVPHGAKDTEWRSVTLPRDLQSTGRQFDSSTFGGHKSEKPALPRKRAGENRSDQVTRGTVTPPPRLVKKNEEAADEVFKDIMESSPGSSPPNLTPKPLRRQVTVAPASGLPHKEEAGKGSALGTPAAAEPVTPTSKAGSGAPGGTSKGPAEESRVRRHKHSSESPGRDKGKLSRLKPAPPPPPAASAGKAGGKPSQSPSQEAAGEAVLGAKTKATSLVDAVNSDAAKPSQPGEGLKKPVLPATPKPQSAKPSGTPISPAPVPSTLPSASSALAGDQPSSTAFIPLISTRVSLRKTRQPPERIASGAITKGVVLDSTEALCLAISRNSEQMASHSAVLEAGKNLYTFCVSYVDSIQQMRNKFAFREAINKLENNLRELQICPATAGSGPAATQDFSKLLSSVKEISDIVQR
Sequence of UniProt P29320 (whole entry, looked up): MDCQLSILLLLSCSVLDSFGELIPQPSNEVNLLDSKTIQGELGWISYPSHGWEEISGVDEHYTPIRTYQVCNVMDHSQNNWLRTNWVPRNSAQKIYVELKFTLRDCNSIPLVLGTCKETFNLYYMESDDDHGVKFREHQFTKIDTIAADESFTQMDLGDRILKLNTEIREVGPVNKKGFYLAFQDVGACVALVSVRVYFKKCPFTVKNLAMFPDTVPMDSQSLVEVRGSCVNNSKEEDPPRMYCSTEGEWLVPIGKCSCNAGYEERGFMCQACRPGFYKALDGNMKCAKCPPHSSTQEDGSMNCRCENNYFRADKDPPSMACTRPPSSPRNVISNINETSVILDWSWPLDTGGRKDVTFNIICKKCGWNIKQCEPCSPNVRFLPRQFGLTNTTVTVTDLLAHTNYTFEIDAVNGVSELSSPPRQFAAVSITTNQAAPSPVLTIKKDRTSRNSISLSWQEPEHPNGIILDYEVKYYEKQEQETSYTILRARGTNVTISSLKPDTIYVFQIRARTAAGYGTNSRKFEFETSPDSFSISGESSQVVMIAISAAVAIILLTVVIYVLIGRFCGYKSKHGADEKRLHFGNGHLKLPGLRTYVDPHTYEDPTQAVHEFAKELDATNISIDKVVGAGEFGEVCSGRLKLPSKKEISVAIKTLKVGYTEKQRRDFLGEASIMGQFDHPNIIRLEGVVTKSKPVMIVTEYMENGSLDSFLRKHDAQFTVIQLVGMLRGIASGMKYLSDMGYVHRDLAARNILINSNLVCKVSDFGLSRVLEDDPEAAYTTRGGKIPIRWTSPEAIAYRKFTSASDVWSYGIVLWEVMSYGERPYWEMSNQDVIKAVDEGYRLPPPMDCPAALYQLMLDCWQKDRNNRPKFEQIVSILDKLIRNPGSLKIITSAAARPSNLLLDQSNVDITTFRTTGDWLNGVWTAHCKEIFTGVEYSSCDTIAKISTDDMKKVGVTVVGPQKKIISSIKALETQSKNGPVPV
Sequence of UniProt P42685 (whole entry, looked up): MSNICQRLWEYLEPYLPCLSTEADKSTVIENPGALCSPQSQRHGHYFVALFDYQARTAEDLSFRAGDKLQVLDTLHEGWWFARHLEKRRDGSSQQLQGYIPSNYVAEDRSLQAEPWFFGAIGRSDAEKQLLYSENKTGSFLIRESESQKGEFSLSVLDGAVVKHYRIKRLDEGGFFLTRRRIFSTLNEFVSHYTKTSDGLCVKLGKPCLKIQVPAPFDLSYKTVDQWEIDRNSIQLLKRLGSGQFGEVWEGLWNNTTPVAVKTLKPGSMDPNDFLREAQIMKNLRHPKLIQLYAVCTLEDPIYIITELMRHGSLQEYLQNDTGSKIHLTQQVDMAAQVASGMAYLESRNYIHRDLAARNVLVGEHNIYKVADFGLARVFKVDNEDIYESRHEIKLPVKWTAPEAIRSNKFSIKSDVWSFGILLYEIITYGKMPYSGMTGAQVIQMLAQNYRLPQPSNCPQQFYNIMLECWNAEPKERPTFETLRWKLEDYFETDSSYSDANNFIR
Sequence of UniProt P11362 (whole entry, looked up): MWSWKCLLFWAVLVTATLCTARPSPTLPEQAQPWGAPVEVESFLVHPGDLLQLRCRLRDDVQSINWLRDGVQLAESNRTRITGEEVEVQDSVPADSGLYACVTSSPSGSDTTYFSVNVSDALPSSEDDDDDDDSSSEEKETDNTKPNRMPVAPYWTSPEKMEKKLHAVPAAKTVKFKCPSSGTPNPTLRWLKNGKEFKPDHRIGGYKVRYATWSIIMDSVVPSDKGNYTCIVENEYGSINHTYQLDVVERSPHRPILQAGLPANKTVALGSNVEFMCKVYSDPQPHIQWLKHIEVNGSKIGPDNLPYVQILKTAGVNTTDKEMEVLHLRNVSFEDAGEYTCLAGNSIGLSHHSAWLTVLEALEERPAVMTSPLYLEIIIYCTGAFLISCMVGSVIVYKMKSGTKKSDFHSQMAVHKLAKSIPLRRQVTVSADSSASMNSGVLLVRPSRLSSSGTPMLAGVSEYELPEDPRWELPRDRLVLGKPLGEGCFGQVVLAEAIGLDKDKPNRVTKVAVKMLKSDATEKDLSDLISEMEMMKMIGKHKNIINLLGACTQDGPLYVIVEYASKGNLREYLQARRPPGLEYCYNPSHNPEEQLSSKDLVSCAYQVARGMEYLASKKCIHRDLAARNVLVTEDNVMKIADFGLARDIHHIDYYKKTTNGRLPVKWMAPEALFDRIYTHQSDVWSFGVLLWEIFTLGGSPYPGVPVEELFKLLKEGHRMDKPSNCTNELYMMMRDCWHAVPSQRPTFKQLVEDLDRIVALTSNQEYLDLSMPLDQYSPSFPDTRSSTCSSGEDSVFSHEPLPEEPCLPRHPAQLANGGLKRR
Sequence of UniProt P9WI81 (whole entry, looked up): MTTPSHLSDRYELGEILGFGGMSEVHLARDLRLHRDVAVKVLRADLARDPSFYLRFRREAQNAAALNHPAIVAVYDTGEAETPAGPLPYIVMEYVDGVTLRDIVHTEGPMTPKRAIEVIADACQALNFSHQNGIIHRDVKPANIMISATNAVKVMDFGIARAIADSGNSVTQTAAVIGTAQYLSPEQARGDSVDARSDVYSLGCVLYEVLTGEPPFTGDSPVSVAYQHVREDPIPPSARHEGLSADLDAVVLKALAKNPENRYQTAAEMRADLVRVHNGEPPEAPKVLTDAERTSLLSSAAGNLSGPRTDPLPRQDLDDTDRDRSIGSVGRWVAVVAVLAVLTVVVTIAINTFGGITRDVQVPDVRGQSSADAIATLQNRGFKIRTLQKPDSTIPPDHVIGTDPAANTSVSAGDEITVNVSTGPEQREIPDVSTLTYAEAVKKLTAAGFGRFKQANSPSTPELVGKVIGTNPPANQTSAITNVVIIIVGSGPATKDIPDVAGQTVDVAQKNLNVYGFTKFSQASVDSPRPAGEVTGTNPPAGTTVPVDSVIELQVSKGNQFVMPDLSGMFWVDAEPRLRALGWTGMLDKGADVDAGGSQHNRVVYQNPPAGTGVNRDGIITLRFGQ

Block 1 — cell line: mouse MPNST tumor cells; method: high-content nuclear imaging; measured: cell number; concentration: 10 µM; time: 12 h; notes: mean of 2 replicates; reference: plate mean; direction: higher = more cells
For `C=CCC1(CC(C)C)C(=O)NC(=O)NC1=O`, the nuclei count was 0.25 z-score.
The nuclei count of `CN(C)[C@@H]1C(=O)C(C(N)=O)=C(O)[C@@]2(O)C(=O)C3=C(O)c4c(O)cccc4[C@@](C)(O)[C@H]3C[C@@H]12` is reported as 0.71 z-score.
For `CC(N)C(O)c1ccccc1` (centres unmarked), the nuclei count was 0.434 z-score.

Block 2 — target: CCNB2, cyclin fold, Cln2 fusion (human); method: yeast growth competition, sequencing; matrix: yeast; notes: strong parent motif; reference: not given; direction: higher = stronger binding; starting sequence: viral docking peptide; YKVKRRLVFGADD
For `K4A`, “normalised enrichment score” read 0.411.
`G10S`: “normalised enrichment score” 1.58.
Under “normalised enrichment score”, `D12I` is recorded as 1.13.
Under “normalised enrichment score”, `D12C` is recorded as 0.837.
`V3P` — result for “normalised enrichment score”: 0.42.
`V8W` — result for “normalised enrichment score”: 1.3.
`R5M` — result for “normalised enrichment score”: 0.821.
For `G10Q`, “normalised enrichment score” read 1.68.

Block 3 — concentration: 0.5 µM
Structure (SMILES): COC[C@H]1OC(=O)c2coc3c2[C@@]1(C)C1=C(C3=O)[C@@H]2CCC(=O)[C@@]2(C)C[C@H]1OC(C)=O
It gave 105% for remaining activity (Mitogen-activated protein kinase kinase kinase 5 (MAP3K5, Homo sapiens, UniProt Q99683); enzyme activity, inhibitor; reference: control).
The remaining activity was 98.1% (Ephrin type-A receptor 3 (EPHA3, Homo sapiens, UniProt P29320); enzyme activity, inhibitor; reference: control).
The remaining activity was 94.3% (Tyrosine-protein kinase FRK (FRK, Homo sapiens, UniProt P42685); enzyme activity, inhibitor; reference: control).
The remaining activity was 89.6% (Fibroblast growth factor receptor 1 (FGFR1, Homo sapiens, UniProt P11362); enzyme activity, inhibitor; reference: control).
It gave 96.9% for remaining activity (MAP kinase-activated protein kinase 2 (MAPKAPK2, Homo sapiens, UniProt P49137); enzyme activity, inhibitor; reference: control).
Serine/threonine-protein kinase Nek1 (NEK1, Homo sapiens, UniProt Q96PY6); enzyme activity, inhibitor; reference: control — remaining activity: 83.3%.
It gave 80.5% for remaining activity (Glycogen synthase kinase-3 beta (GSK3B, Homo sapiens, UniProt P49841); enzyme activity, inhibitor; reference: control).
The remaining activity was 103% (Serine/threonine-protein kinase Nek6 (NEK6, Homo sapiens, UniProt Q9HC98); enzyme activity, inhibitor; reference: control).
It gave 93.8% for remaining activity (Dual specificity mitogen-activated protein kinase kinase 2 (MAP2K2, Homo sapiens, UniProt P36507); enzyme activity, inhibitor; reference: control).
Casein kinase I isoform gamma-3 (CSNK1G3, Homo sapiens, UniProt Q9Y6M4); enzyme activity, inhibitor; reference: control — remaining activity: 96.2%.
For Mitogen-activated protein kinase 3 (MAPK3, Homo sapiens, UniProt P27361); enzyme activity, inhibitor; reference: control: remaining activity read 94.7%.
Tyrosine-protein kinase JAK3 (JAK3, Homo sapiens, UniProt P52333); enzyme activity, inhibitor; reference: control — remaining activity: 95.5%.
It gave 88.7% for remaining activity (Tyrosine-protein kinase Mer (MERTK, Homo sapiens, UniProt Q12866); enzyme activity, inhibitor; reference: control).
Mitogen-activated protein kinase kinase kinase 14 (MAP3K14, Homo sapiens, UniProt Q99558); enzyme activity, inhibitor; reference: control — remaining activity: 106%.
Tyrosine-protein kinase ABL1 (ABL1, Homo sapiens, UniProt P00519); kinase activity; with: ATP 10 µM; reference: untreated — remaining activity: 101%.
The remaining activity was 97.6% (Serine/threonine-protein kinase TAO2 (TAOK2, Homo sapiens, UniProt Q9UL54); enzyme activity, inhibitor; reference: control).

Block 4 — organism: Sarcocystis neurona; observed: parasite growth; concentration: 10 µM; time: 96 h; notes: secondary screen
With `NC(=O)OCCCc1ccccc1` the inhibition was -8.6%.
For `C[C@H]1CCC[C@H](O)CCCCCc2cc(O)cc(O)c2C(=O)O1`, the inhibition was -42.7%.
`c1ccc(Cn2ccnc2)cc1` gave an inhibition of -18.9%.

Block 5 — observed: enzyme activity; action: inhibitor; concentration: 10 µM
Target: Calcium/calmodulin-dependent protein kinase type II subunit alpha (CAMK2A, Homo sapiens, UniProt Q9UQM7)
Sequence of UniProt Q9UQM7 (whole entry, looked up): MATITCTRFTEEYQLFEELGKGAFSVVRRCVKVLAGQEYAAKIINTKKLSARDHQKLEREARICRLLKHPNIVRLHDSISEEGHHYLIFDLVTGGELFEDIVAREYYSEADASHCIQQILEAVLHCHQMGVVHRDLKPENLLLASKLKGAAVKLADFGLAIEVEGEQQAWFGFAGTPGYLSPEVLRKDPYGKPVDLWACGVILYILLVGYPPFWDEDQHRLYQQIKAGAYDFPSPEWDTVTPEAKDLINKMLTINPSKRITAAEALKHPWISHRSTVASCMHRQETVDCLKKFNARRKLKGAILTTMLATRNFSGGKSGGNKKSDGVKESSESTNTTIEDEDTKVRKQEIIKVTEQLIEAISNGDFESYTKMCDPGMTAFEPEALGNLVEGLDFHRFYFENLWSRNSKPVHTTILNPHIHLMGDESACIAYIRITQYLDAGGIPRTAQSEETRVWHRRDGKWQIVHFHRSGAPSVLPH
`CO[C@@H]1C[C@H](O[C@H]2CC[C@@]3(C)[C@H](CC[C@@]45O[C@@]46CC[C@H](C4=CC(=O)OC4)[C@@]6(C)CC[C@H]35)C2)O[C@H](C)[C@@H]1O` has an inhibition of -146%.
`CC(C)[C@]12CC(=O)[C@H](C)[C@H]1C2` has an inhibition of -7%.
`C=CCCN1C[C@@H]2C[C@H](C1)c1cccc(=O)n1C2` has an inhibition of -20%.

Further values, each from its own experiment
`CN(c1ccnc(CNc2nc(Nc3ccc4c(c3)CC(=O)N4)ncc2C(F)(F)F)n1)S(C)(=O)=O` has a remaining binding of 80% (Serine/threonine-protein kinase PknB (pknB, Mycobacterium tuberculosis, UniProt P9WI81); cell-free assay, competition with immobilised ligand; 1 µM).
`[N-]=[N+]=CC(=O)CC[C@H](N)C(=O)O`: “white blood cell count” 1.22 and 0.97 and 0.59 (C57BL/6 CES1-/- mouse; intravenous, 1 mg/kg).
For `COc1ccc(-c2c(Nc3ccccn3)[nH]c3c(C4=CCCCC4)c(-c4ccccc4)nn3c2=O)cc1`, “blood bilirubin increased incidence” read 22.5% (patients with advanced malignancies; oral, dose not given, treatment-emergent adverse events).
`CC(=O)N[C@@H](Cc1c[nH]c2ccccc12)C(=O)N[C@@H](CCC(=O)C=[N+]=[N-])C(=O)OC(C)C` — result for “white blood cell count”: 7.63 and 2.9 and 6.93 (C57BL/6 CES1-/- mouse; intravenous, 1 mg/kg).
With `COc1ccc(N(C(=O)Oc2c(C)cccc2C)c2ccnc(Nc3ccc(N4CCN(C)CC4)cc3)n2)c(OC)c1` the viability was 79.1% (HH; 2 µM, 48 h; reference: untreated).
